# Published values gathered from unrelated publications.
# A part holds a random share of what one study measured. Changes are numbered by the printed parent chain.

# Sample 1 — technique: RNA Bind-n-Seq; molecule type: RNA; medium: in vitro; tested at: 365 nM; reference: no-protein control; reading: higher = stronger binding
# Target: RNA binding protein fox-1 homolog 2, RRM domain, GST-SBP tag (RBFOX2, Homo sapiens, UniProt O43251-10, residues 100-194)
# Setting: natural RNA segment, single round, ends assumed
# All sequences stand within: GGGAGUUCUACAGUCCGACGAUC … UGGAAUUCUCGGGUGCCAA
# Construct (chain): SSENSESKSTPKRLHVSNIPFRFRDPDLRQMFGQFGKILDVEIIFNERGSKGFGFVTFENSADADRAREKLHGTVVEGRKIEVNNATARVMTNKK
Sequence,RBNS enrichment (R)
CUGCUUGUGGGAGUGGGAAAUGGGUAUUUUAGACCCAACACAGGUUCUAAAUUUAAAACAAAUAAUAAUUGGAACAAAUAAAGGUUCUUGUACCCAGAGUGAUUCUACAU,0.432
CAUUGGGUGAUCAUUCACCAGUACAUUCUCAGUUUUUCUUAAUAUAUAGCAUUUAUGGUAAUCAUAUUAGACUUCUGUUUUCAAUCUCGUAUAGAAGUCUUCAUGAAAUG,0.63
GAACCACCCAUCCCAGCUCAGCCCCAAGAACCAACCAAAGAGCCAGUCAAAAGCAAGCUGGGUUUGCAGCCCACUCCAGCCCAUGGCCUGUUGCCCAGCUCUGUAGACAU,0.394
CGUUGUGUGCUCAGUGUUUUCUCAUAGGCACCAGGGACAGGCUUCUCAAGGCAGUAUGAUAUACCCUAGUCUUUGGUGCCUCUAGUAUAUGUGACCAGGUGUCGUCCUGC,0.482
AUCACUUAUUCAAGGUGGGAUUUUAUGGGGAUUUUUUUCAUUUUUAGCUUUCUGUUAAAUACUUGCAGAAAAAAAAAAUAGCAAGUACAAUAUGACAGUAGUACAACAAC,0.682
UUUCCAUUUCAAACAAAAUUUUAGAAAUUGGUUUGGUGUUCAGCUUCACAUUUCAUUUUUUCUUAGCACAUGUUGAUAAAAUAGUCACAAGGAGAAAUUACCAGUUACGG,0.47
GGCCAUUUUAGUUUGAGUUCGAGCCAACCACCUCUGUUGGUUAGAUGAUGAAUAAAAAGGUUCUGAAAAAAGGUCUGGAUCCAGUUGUCUUUCUGCAUGGAUUAAAGAGU,1.59
UACUCAGAACUCAGGAGCCUUGCCCAGCCGCUCAGUCACCUGCCUGCUGUGCUUCCGGGCAGUGCCAGGCACUCCCUUGUGGGGCUCAUGCUCCUUCUACCUACCGGUCA,0.24

# Sample 2 — target: FOSB, bZIP domain (human); technique: DHFR protein complementation; medium: yeast; reference: wild-type JUN-FOS pair; reading: higher = stronger binding
# Setting: single substitutions, most at no-binding floor
# Starting sequence: JUN, bZIP domain (human); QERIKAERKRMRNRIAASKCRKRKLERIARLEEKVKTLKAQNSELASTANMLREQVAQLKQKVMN; partner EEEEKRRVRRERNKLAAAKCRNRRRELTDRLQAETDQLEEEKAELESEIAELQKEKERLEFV
Substitution,binding fitness [natural log]
E54K,-0.287
T48M,-0.165
L38Q,-0.339
T37R,-0.0567
T37Q,0.104
A49C,-0.239
N42M,-0.266
E32F,-0.442

# Sample 3 — technique: Spec-seq; molecule type: double-stranded DNA, one strand shown; medium: in vitro; tested at: not given; setting: whole probe, mean of replicates; reference: not given; reading: lower = stronger binding; all sequences stand within: GAGTCGTCTCGTCAGCAC … CCGTAGAGCACTCAGGTC
# Target: POU domain, class 5, transcription factor 1, POU domain (Pou5f1, Mus musculus, UniProt P20263, residues 131-289)
# UniProt P20263, sequence (131-289, looked up): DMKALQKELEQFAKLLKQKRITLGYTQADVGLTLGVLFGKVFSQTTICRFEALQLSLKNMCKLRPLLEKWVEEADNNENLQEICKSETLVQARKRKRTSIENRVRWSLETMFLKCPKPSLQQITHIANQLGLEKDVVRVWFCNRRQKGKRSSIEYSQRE
Sequence,relative binding energy
ATAACTAT,-0.416 ln ratio
ATTGCGAT,0.476 ln ratio
TAGCTAAT,0.463 ln ratio
TCTTTAAT,0.524 ln ratio
ATGCTTGT,0.674 ln ratio
GTGTTAAT,-0.335 ln ratio
ATGCAATA,-0.211 ln ratio
ATTTTCAT,-0.0381 ln ratio

# Other studies, line by line
Sequence,target,effect on,molecule type,reading,endpoint,value
GFPFFIMPK,"HLA class I histocompatibility antigen, A alpha chain, allele A*80:01 (Homo sapiens, UniProt P04439)",peptide-MHC binding,peptide,direction not given,z-score of log IC50,0.38
